Measurements gathered from unrelated publications.
Numbered parts are unrelated; each lists some results of a single study.

Set 1
Target: Sal-like protein 4, full length isoform A (SALL4, Homo sapiens, UniProt Q9UJQ4, residues 1-1053)
Chain of UniProt Q9UJQ4 (whole entry, looked up): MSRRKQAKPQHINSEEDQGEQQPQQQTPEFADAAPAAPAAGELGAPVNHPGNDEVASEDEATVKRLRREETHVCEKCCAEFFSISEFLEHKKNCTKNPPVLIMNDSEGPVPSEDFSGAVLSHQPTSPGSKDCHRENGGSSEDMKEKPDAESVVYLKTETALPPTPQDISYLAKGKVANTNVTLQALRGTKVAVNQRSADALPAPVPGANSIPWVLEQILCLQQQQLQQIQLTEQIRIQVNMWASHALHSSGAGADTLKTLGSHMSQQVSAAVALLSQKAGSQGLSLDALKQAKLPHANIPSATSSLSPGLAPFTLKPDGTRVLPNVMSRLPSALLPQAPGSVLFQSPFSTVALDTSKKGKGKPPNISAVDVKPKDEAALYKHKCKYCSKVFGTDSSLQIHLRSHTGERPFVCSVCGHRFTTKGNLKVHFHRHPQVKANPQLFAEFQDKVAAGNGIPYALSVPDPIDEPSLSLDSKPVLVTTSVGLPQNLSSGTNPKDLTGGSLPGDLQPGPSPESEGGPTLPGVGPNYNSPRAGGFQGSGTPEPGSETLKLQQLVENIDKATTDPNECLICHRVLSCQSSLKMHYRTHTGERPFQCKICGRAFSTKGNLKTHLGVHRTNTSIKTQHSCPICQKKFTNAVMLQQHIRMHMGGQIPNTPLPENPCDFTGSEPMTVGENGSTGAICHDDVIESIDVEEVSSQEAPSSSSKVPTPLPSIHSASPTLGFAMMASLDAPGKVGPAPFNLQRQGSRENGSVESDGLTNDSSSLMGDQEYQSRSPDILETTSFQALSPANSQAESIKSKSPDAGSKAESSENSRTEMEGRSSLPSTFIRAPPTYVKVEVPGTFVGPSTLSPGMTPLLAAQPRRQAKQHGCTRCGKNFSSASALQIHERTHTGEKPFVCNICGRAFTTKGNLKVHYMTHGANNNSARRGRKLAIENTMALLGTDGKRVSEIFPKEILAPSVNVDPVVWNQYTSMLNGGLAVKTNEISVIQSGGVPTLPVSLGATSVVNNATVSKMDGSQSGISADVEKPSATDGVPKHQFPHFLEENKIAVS
Technique: universal PBM
Form: double-stranded DNA, one strand shown
Matrix: in vitro
Concentration: 600 nM
Setting: 8-mer, flanks averaged, mean of replicates
Reading: higher = stronger binding
For `ACCAGTTC`, the E-score was -0.17.
`CCCAGTAC` has an E-score of -0.26.
`TAAGGCAA` gave an E-score of 0.0644.
With `TGCAGACA` the E-score was 0.111.
The E-score of `TACACACA` is reported as 0.198.
`AACGGACG` has an E-score of -0.194.
The E-score of `ACGAGTGA` is reported as -0.143.
The E-score of `AATGGCTG` is reported as -0.0705.
`CGATTCAC` has an E-score of 0.0514.
The E-score of `AGGTTTCA` is reported as 0.0129.
For `AGATGTAC`, the E-score was 0.0659.
With `AAATCTCT` the E-score was 0.183.
For `GATTCTAA`, the E-score was 0.139.
`AGGTCCTA` gave an E-score of -0.0443.
`GCCTGGAA` has an E-score of -0.125.
`GGCAGCCA` has an E-score of -0.115.
For `ACGGAGTA`, the E-score was -0.0809.
With `GGTACCGA` the E-score was -0.291.

Set 2
Cell line: yeast with cyclin B3-Cln2 chimera
Effect on: cell growth
Mode: binder
Technique: competitive growth deep sequencing
Form: peptide
Concentration: concentration not given
Setting: peptide tiling library
Reading: direction not given
`VKTKKRLNFDDK` — result for “growth enrichment score”: 0.167.
`SMTDFYHSKRRLIFSK`: “growth enrichment score” -1.55.
For `GFGFLLFICKLTF`, “growth enrichment score” read 0.144.
Under “growth enrichment score”, `TTTTSPRTPPPLTVQD` is recorded as -0.161.
`RRRIKLPESDSSED` — result for “growth enrichment score”: 1.03.
For `KVKRRLDLDIDGLQKE`, “growth enrichment score” read -0.0282.
Under “growth enrichment score”, `RVSGLLSWTLSRVLWL` is recorded as -0.384.
For `RQVRRDLFAF`, “growth enrichment score” read 0.382.
`NEGVSNAVRRSLYIRD`: “growth enrichment score” 0.135.
`NSMKELNFSHLPSNSV` — result for “growth enrichment score”: 0.708.
For `SPPRGRRLFPPGPAGF`, “growth enrichment score” read -0.133.
Under “growth enrichment score”, `KSKHEEEEWTDDDLVE` is recorded as 0.47.
For `LKGRRLVFDN`, “growth enrichment score” read 0.215.
Under “growth enrichment score”, `PFSENVSAVQKLDFSD` is recorded as 0.28.

Set 3
Target: Interferon regulatory factor 5, full length, phosphomimetic (IRF5, Homo sapiens, UniProt Q13568-2, residues 1-514, S451D/S453D/S456D/S462D)
Technique: protein-binding microarray
Form: double-stranded DNA, one strand shown
Matrix: in vitro
Concentration: 940 nM top
Setting: 60-bp whole probe
With: salmon DNA 0.4 mg/ml
Baseline: random background probes
Reading: higher = stronger binding
All sequences stand within: GCCTAGCAC … GTCTTGATTCGCTTGACGCTGCTG
`TCCACTTGTCTTTTCACTTTGTGCTAG`: “fitted relative affinity” 1.41 z-score.
`TTAGGTATCGGTATCGGTAAGTGCTAG` — result for “fitted relative affinity”: 11.2 z-score.
`TCACGTTACTTCCTCAAACTGTGCTAG` — result for “fitted relative affinity”: 1.08 z-score.
`GACGGTTCCCTTTTCCTGCCGTGCTAG` — result for “fitted relative affinity”: 0.701 z-score.
For `TACTGTCTGTTTCCTCTTTCTGTGCTA`, “fitted relative affinity” read 1.85 z-score.
For `TCACATATTCTCTTCTTACTGTGCTAG`, “fitted relative affinity” read 1.89 z-score.
Under “fitted relative affinity”, `TTAGGAATGGGGTATCGGTTAGTGCTA` is recorded as 2.7 z-score.
For `TTAGGTTTCGGTTTCGGCTAGTGCTAG`, “fitted relative affinity” read 16 z-score.
Under “fitted relative affinity”, `TTAGAGATCAGTATCGATTAGTGCTAG` is recorded as 5.2 z-score.
For `TTAGATCTCTGTCTCGATTAGTGCTAG`, “fitted relative affinity” read 1.91 z-score.
Under “fitted relative affinity”, `TTCTATGTCTGTTTTTGCTTGTGCTAG` is recorded as 0.769 z-score.
`CCCTTAAAAGACGTGCCAATGTGCTAG` — result for “fitted relative affinity”: 0.166 z-score.
`TTAGATTTCAGTTACGATTAGTGCTAG`: “fitted relative affinity” 1.03 z-score.
`GACGAACTGAGTATCAAGACGTGCTAG`: “fitted relative affinity” -0.235 z-score.
Under “fitted relative affinity”, `TCAGAACTGAGTCTCGATTAGTGCTAG` is recorded as 2.72 z-score.
`GACGATCTCAGTCTCTAGACGTGCTAG`: “fitted relative affinity” 0.507 z-score.
Under “fitted relative affinity”, `TAGTTTATACTCTAGATGATGTGCTAG` is recorded as -0.262 z-score.
`GACGATAACGGGTATCGAGACGTGCTA` — result for “fitted relative affinity”: 0.769 z-score.
`GACGGTAGCGGGACTGGGGACGTGCTA`: “fitted relative affinity” -0.33 z-score.
`TCATACTTCTCTTTTGGACTGTGCTAG` — result for “fitted relative affinity”: 0.873 z-score.
`TATTTTTTTTATTTATAAATGTGCTAG` — result for “fitted relative affinity”: 0.636 z-score.
For `GACGGACTGGGGACTGGGGTCGTGCTA`, “fitted relative affinity” read -0.29 z-score.
For `TACGAACTGAGACTGGAGACGTGCTAG`, “fitted relative affinity” read -0.354 z-score.
Under “fitted relative affinity”, `TTTGCTTTCTTTATGCACTCGTGCTAG` is recorded as 1.3 z-score.
`TTAGGTCTCGGACTGGGTGAGTGCTAG`: “fitted relative affinity” 0.834 z-score.

Set 4
Target: RNA binding protein fox-1 homolog 2, RRM domain, GST-SBP tag (RBFOX2, Homo sapiens, UniProt O43251-10, residues 100-194)
Technique: RNA Bind-n-Seq
Form: RNA
Matrix: in vitro
Concentration: 365 nM
Setting: natural RNA segment, single round, ends assumed
Baseline: no-protein control
Reading: higher = stronger binding
Residues (chain): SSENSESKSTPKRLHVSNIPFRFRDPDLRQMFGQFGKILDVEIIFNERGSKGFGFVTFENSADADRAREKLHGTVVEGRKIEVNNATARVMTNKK
For `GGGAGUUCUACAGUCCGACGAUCUAGAUCUUAACAGUUUAUUAUUAACUUUUCAGGUCCUCAUUUAUUGAAAUUUAAAAAUAAAUGAAGGAAUAUAGAGAUGGCACAGGGUUCCAGCUUGUUGUGUUUAUAAAUGGAAUUCUCGGGUGCCAA`, “RBNS enrichment (R)” read 2.64.
`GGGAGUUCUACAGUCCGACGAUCCGUGUCCAGGUCCAAAGUGGAGAGCCUGCCUUUGGGUUUAGUUCCCGAAUCAGAAUCCCAUCUCACCAGGGCGAAAUUUUAAUUUAAAAACUUAAAAAGAGACUUUUCUAUGGAAUUCUCGGGUGCCAA`: “RBNS enrichment (R)” 0.409.
Under “RBNS enrichment (R)”, `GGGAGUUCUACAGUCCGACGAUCACCUUGUAUAGCCAGUUUGACCAUCUGCCUUAUAGACAAACAUUGCUGUUCUUCUAUGUCGUCCUCUUGAGAAAGCUGCAAGGGUUUACCUCUUUCCUUGACUCUCUUCUUGGAAUUCUCGGGUGCCAA` is recorded as 0.253.
`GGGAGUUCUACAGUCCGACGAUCGCGCUUACGGGCCCCAGGUGCCUACUAGGCUGCCUUCCUCUUCCCCGCUGUCAGUCUGUGUCCUCCACGUGCUUAUUUCCUGUGGUGAGAGCAGUUGUGGUGUUUGUAUAUGGAAUUCUCGGGUGCCAA` — result for “RBNS enrichment (R)”: 0.438.
`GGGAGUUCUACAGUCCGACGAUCUUUUAGAGGAUAUAGUAUCGGCAUUGACAAAUCACGUAGAAACAAAGAAUGCUAUAGAUGACAACAGUAUUAAAUGUUACUCCUGAUUCUGCAGAACAGCUUUUGAAGAUUGGAAUUCUCGGGUGCCAA` — result for “RBNS enrichment (R)”: 0.71.
`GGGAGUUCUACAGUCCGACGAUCAUGUCAUUAACUACCCCUCUCUGUUUUUACCCCUCUACCUUUGCAGGACCCGGGUCAUGGGUCAGUGUUAGUGGUAGCGUGCUCUCAUUCGCUUGGAAGUGGUGGCCAUGUGGAAUUCUCGGGUGCCAA` — result for “RBNS enrichment (R)”: 0.313.
For `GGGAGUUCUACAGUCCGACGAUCGUGGUGUUAAGACUGUAAUCCCAGCACUCAGGAAGCUGAGACAGGAGAAUUGCCGGGAGUACAAAGUCAACCGGAGCUAAAUAAUAUCAGCCACCAGGACUACAUAACGAUGGAAUUCUCGGGUGCCAA`, “RBNS enrichment (R)” read 0.448.
Under “RBNS enrichment (R)”, `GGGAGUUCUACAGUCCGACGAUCUUUUUUUUCCUCUUAACUCUGUCUGCUCUUAAAGCCAGGCAACCCAGUUUGGUCUCAGGCAUAGCCUGAGCAGAUCUUAGUUUUGCCCCCACCACCAUAGUUUUGUGCUAUGGAAUUCUCGGGUGCCAA` is recorded as 0.26.
Under “RBNS enrichment (R)”, `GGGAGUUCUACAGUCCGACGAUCCUAUAUUCUCAGGCACACAUAGGCGCACAGAGACAGCUUCCUAGUAACUCACAUCAAUUUCGUUUAAUACAAACUGAUCCUGAAGAGCUGAGGAACUAUGUAAGUUCAGUUGGAAUUCUCGGGUGCCAA` is recorded as 0.372.
Under “RBNS enrichment (R)”, `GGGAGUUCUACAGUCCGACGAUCCUCGGGAGGCUGAGGCAGGAGAAUGGCGUGAACCCAGGAGGCGGAGCUUGCAGUGAGCCGAGAUUGUGCCACUGCACUCCAGCCUGGGCAACAGAGCUAGACUCUGUGUCUGGAAUUCUCGGGUGCCAA` is recorded as 0.269.
`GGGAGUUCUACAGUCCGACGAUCUUUGUGUAAUUGGUUUGAAAAACAGUGAAAUGGGUAAACGCAAAACUUUUGUACUUUAUUACGAGUAAAGUGUAAUGAGUACUGUGGAAACCAAAUUUGAAUACUGCAAAUGGAAUUCUCGGGUGCCAA`: “RBNS enrichment (R)” 0.395.
Under “RBNS enrichment (R)”, `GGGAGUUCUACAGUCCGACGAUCUCCAGCCUUGCAAGAAGGCUAUUCACAAUUAGGCCUGGCUGCUUCUCUCAUUUUUUUCCUCCCAGUUUCCAAACAAGCCCUCAGUGAACAUCAUUGAAGCGUGACUGCCUUGGAAUUCUCGGGUGCCAA` is recorded as 0.294.
